# Published values gathered from unrelated publications.
# Protocols differ between the studies behind these lines.
# Organism: Candida albicans
Structure (SMILES),test,system,conditions,MIC
CC[C@H](C)[C@H](NC(=O)CN)C(=O)N[C@@H](CC(C)C)C(=O)N[C@@H](CC(=O)O)C(=O)N[C@@H](C)C(=O)N[C@H](C(=O)N[C@@H](CCCCN)C(=O)N[C@@H](C)C(=O)N[C@H](C(=O)N[C@@H](C)C(=O)N[C@@H](CCCCN)C(=O)N[C@@H](C)C(=O)N[C@H](C(=O)N[C@@H](CCCCN)C(=O)N[C@@H](C)C(=O)N[C@@H](CCCCN)C(=O)N[C@@H](C)C(=O)NCC(N)=O)[C@@H](C)CC)[C@@H](C)CC)[C@@H](C)CC,,"ATCC 90029, RPMI MOPS","24 h, pH 7.0, 33 °C",64 µg/mL
C[C@H](NC(=O)[C@H](CCCNC(=N)N)NC(=O)[C@H](Cc1c[nH]c2ccccc12)NC(=O)[C@H](CCCNC(=N)N)NC(=O)[C@H](Cc1c[nH]c2ccccc12)NC(=O)[C@H](Cc1c[nH]c2ccccc12)NC(=O)[C@H](Cc1c[nH]c2ccccc12)NC(=O)[C@H](CCCNC(=N)N)NC(=O)[C@H](Cc1c[nH]c2ccccc12)NC(=O)[C@H](CCCNC(=N)N)NC(=O)CN)C(N)=O,broth microdilution,"SP3902, RPMI 1640-MOPS","48 h, 30 °C",8 µM
C#Cc1ccc(O)c(C=NNC(=O)c2ccc(C3(C(F)(F)F)N=N3)cc2)c1,,A39,48 h,1 µg/mL
CC[C@H](C)[C@H](NC(=O)[C@H](CCCNC(=N)N)NC(=O)[C@H](Cc1c[nH]c2ccccc12)NC(=O)[C@H](CCCNC(=N)N)NC(=O)[C@H](Cc1c[nH]c2ccccc12)NC(=O)[C@H](Cc1c[nH]c2ccccc12)NC(=O)[C@H](Cc1c[nH]c2ccccc12)NC(=O)[C@H](CCCNC(=N)N)NC(=O)[C@H](Cc1c[nH]c2ccccc12)NC(=O)[C@@H](N)CCCNC(=N)N)C(N)=O,broth microdilution,"SP3931, RPMI 1640-MOPS","48 h, 30 °C",8 µM
CC(=O)N1CCN(c2ccc(OCC3COC(Cn4ccnc4)(c4ccc(Cl)cc4Cl)O3)cc2)CC1 (centres unmarked),,2.209,after 30 generations serial passaging,512 µM
CC[C@H](C)[C@H](NC(=O)[C@H](CCCNC(=N)N)NC(=O)[C@H](Cc1c[nH]c2ccccc12)NC(=O)[C@H](CCCNC(=N)N)NC(=O)[C@H](Cc1c[nH]c2ccccc12)NC(=O)[C@H](Cc1c[nH]c2ccccc12)NC(=O)[C@H](Cc1c[nH]c2ccccc12)NC(=O)[C@H](CCCNC(=N)N)NC(=O)[C@H](Cc1c[nH]c2ccccc12)NC(=O)[C@H](CCCNC(=N)N)NC(=O)CN)C(N)=O,broth microdilution,"CGMCC 2.209, RPMI 1640-MOPS","48 h, 30 °C, together with: KCl 4.5 mM",8 µM
CC(C)C[C@H](NC(=O)[C@H](CCCCN)NC(=O)[C@H](CO)NC(=O)[C@H](C)NC(=O)[C@H](C)NC(=O)CNC(=O)[C@H](CC(C)C)NC(=O)[C@H](CCCCN)NC(=O)[C@H](CC(C)C)NC(=O)[C@H](CC(C)C)NC(=O)[C@H](CC(C)C)NC(=O)CNC(=O)[C@H](CO)NC(=O)[C@H](Cc1c[nH]c2ccccc12)NC(=O)[C@@H](N)CCCCN)C(N)=O,broth microdilution,ATCC 10231,"44 h, 37 °C",100 µM
CC[C@H](C)[C@H](NC(=O)[C@@H](NC(=O)[C@@H](NC(=O)[C@H](Cc1c[nH]c2ccccc12)NC(=O)[C@H](Cc1c[nH]c2ccccc12)NC(=O)[C@H](CCCNC(=N)N)NC(=O)[C@@H](N)CCCNC(=N)N)[C@@H](C)O)C(C)C)C(N)=O,,,,32 µg/mL
C#Cc1ccc(O)c(C=NNC(=O)c2ccc(Br)cc2)c1,,A39,48 h,0.24 µg/mL
CCCCCCC[C@@H]1CC(=O)N[C@H](CC(C)C)C(=O)N[C@@H](CO)C(=O)N[C@@H]([C@@H](C)O)C(=O)N[C@H](Cc2ccccc2)C(=O)N[C@@H](C(C)C)C(=O)O1,"fungal growth, XTT",SC5314,,> 100 µM
OC(Cn1cncn1)(Cn1cncn1)c1ccc(F)cc1F,,56214,"48 h, 30 °C, RPMI-1640",128 µM
CC[C@H](C)[C@H](NC(=O)[C@@H](NC(=O)[C@H](C)NC(=O)[C@@H](N)CCCNC(=N)N)C(C)C)C(=O)N[C@@H](CCCNC(=N)N)C(=O)N[C@@H](Cc1c[nH]c2ccccc12)C(=O)N[C@@H](Cc1c[nH]c2ccccc12)C(N)=O,,,,128 µg/mL
CC(C)C[C@H](NC(=O)[C@H](Cc1c[nH]c2ccccc12)NC(=O)[C@H](CC(C)C)NC(=O)[C@@H](NC(=O)[C@H](CC(C)C)NC(=O)[C@H](CCCNC(=N)N)NC(=O)[C@@H](N)CCCNC(=N)N)[C@@H](C)O)C(=O)N[C@H](C(=O)N[C@@H](CC(C)C)C(=O)N[C@@H](CCCNC(=N)N)C(=O)N[C@@H](CCCNC(=N)N)C(N)=O)[C@@H](C)O,,"alveolar fluid isolate, RPMI MOPS","48 h, 37 °C",4 µM
CC[C@H](C)[C@H](NC(=O)CN)C(=O)NCC(=O)N[C@@H](C)C(=O)N[C@H](C(=O)N[C@@H](CC(C)C)C(=O)N[C@@H](CCCCN)C(=O)N[C@H](C(=O)N[C@@H](CC(C)C)C(=O)N[C@H](C(=O)N[C@H](C(=O)NCC(=O)N[C@@H](CC(C)C)C(=O)N1CCC[C@H]1C(=O)N[C@@H](C)C(=O)N[C@@H](CC(C)C)C(=O)N[C@H](C(=O)N[C@@H](CO)C(=O)N[C@@H](Cc1c[nH]c2ccccc12)C(=O)N[C@H](C(=O)N[C@@H](CCCCN)C(=O)N[C@@H](CCCNC(=N)N)C(=O)N[C@@H](CCCCN)C(=O)N[C@@H](CCCNC(=N)N)C(=O)N[C@@H](CCC(N)=O)C(=O)N[C@@H](CCC(N)=O)C(N)=O)[C@@H](C)CC)[C@@H](C)CC)[C@@H](C)O)[C@@H](C)O)C(C)C)C(C)C,broth microdilution,"SP3931, RPMI 1640-MOPS","48 h, 30 °C",2 µM
CC[C@H](C)[C@H](NC(=O)CN)C(=O)NCC(=O)N[C@@H](C)C(=O)N[C@H](C(=O)N[C@@H](CC(C)C)C(=O)N[C@@H](CCCCN)C(=O)N[C@H](C(=O)N[C@@H](CC(C)C)C(=O)N[C@H](C(=O)N[C@H](C(=O)NCC(=O)N[C@@H](CC(C)C)C(=O)N1CCC[C@H]1C(=O)N[C@@H](C)C(=O)N[C@@H](CC(C)C)C(=O)N[C@H](C(=O)N[C@@H](CO)C(=O)N[C@@H](Cc1c[nH]c2ccccc12)C(=O)N[C@H](C(=O)N[C@@H](CCCCN)C(=O)N[C@@H](CCCNC(=N)N)C(=O)N[C@@H](CCCCN)C(=O)N[C@@H](CCCNC(=N)N)C(=O)N[C@@H](CCC(N)=O)C(=O)N[C@@H](CCC(N)=O)C(N)=O)[C@@H](C)CC)[C@@H](C)CC)[C@@H](C)O)[C@@H](C)O)C(C)C)C(C)C,broth microdilution,"SP 3876, RPMI-1640","48 h, 30 °C",4 µM
OC(COc1ccc(-c2nnco2)cc1)CN1CCN(CC(O)COc2ccc(-c3nnco3)cc2)CC1 (centres unmarked),,DSY654 Cdr knockout,,> 128 µg/mL
C[C@H](NC(=O)[C@H](CCCNC(=N)N)NC(=O)[C@H](Cc1c[nH]c2ccccc12)NC(=O)[C@H](CCCNC(=N)N)NC(=O)[C@H](Cc1c[nH]c2ccccc12)NC(=O)[C@H](Cc1c[nH]c2ccccc12)NC(=O)[C@H](Cc1c[nH]c2ccccc12)NC(=O)[C@H](CCCNC(=N)N)NC(=O)[C@H](Cc1c[nH]c2ccccc12)NC(=O)[C@@H](N)CCCNC(=N)N)C(N)=O,,CGMCC 2.209,no added salts,8 µM

# Some of these lines once more:
Structure (SMILES),test,system,conditions,MIC
CC[C@H](C)[C@H](NC(=O)[C@H](CCCNC(=N)N)NC(=O)[C@H](Cc1c[nH]c2ccccc12)NC(=O)[C@H](CCCNC(=N)N)NC(=O)[C@H](Cc1c[nH]c2ccccc12)NC(=O)[C@H](Cc1c[nH]c2ccccc12)NC(=O)[C@H](Cc1c[nH]c2ccccc12)NC(=O)[C@H](CCCNC(=N)N)NC(=O)[C@H](Cc1c[nH]c2ccccc12)NC(=O)[C@H](CCCNC(=N)N)NC(=O)CN)C(N)=O,broth microdilution,"CGMCC 2.209, RPMI 1640-MOPS","48 h, 30 °C, together with: KCl 4.5 mM",8 µM
